Published values collected from several papers.
Numbered parts are unrelated; each lists some results of a single study. Positions count from the first letter of the parent shown.
UniProt P49459, sequence (whole entry, looked up): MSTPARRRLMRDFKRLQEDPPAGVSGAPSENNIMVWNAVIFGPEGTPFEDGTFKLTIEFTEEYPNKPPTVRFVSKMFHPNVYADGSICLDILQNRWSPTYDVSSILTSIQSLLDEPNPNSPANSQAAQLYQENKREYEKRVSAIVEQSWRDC
UniProt Q96B02, sequence (whole entry, looked up): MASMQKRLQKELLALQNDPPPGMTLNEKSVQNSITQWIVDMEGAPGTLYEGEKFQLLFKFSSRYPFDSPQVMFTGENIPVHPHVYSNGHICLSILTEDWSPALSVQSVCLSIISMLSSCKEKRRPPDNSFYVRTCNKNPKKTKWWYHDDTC
UniProt P61077, sequence (whole entry, looked up): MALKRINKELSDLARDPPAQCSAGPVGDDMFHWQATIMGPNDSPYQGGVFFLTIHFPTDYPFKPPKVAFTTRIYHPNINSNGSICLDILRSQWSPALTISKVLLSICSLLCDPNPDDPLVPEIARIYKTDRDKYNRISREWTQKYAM

Block 1
Target: Sodium-dependent dopamine transporter (SLC6A3, Homo sapiens, UniProt Q01959)
UniProt Q01959, sequence (whole entry, looked up): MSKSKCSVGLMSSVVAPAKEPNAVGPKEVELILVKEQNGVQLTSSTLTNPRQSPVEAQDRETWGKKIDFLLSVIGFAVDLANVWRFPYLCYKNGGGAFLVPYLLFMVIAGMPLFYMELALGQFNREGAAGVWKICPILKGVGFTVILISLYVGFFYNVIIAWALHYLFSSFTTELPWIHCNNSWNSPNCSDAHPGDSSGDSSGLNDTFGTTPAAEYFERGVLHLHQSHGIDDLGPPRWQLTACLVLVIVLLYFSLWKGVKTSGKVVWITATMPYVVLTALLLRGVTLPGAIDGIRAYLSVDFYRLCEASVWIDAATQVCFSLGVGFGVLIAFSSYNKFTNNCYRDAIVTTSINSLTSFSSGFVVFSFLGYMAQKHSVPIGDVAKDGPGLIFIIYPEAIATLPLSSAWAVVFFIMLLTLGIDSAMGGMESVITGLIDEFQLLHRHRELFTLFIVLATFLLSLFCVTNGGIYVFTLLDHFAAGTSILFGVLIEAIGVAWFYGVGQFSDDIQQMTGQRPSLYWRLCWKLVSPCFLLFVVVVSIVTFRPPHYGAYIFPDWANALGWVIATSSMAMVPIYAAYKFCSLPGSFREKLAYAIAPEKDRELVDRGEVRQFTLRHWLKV
Observed: binding
Method: radioligand binding
Concentration: 10 µM
| Structure (SMILES) | inhibition [%] |
| --- | --- |
| CNC(=O)Nc1ccc2c(c1)[C@]1(CC2)OC(=O)N(CC(=O)N(Cc2ccc(F)cc2)[C@@H](C)C(F)(F)F)C1=O | -6.45 |
| O=C1c2ccc(Nc3ccc(F)cc3F)cc2CCc2ccc(OC[C@H](O)CO)cc21 | 81.4 |
| COCc1nc2cnc3cc(-c4c(C)noc4C)c(OC[C@H]4CCNC4)cc3c2n1[C@H](C)c1ccccc1 | 27.9 |

Block 2
Target: Protein C-ets-1 (ETS1, Homo sapiens, UniProt P14921, residues 1-441, Y397A, full length assumed)
UniProt P14921, sequence (whole entry, unmodified, looked up): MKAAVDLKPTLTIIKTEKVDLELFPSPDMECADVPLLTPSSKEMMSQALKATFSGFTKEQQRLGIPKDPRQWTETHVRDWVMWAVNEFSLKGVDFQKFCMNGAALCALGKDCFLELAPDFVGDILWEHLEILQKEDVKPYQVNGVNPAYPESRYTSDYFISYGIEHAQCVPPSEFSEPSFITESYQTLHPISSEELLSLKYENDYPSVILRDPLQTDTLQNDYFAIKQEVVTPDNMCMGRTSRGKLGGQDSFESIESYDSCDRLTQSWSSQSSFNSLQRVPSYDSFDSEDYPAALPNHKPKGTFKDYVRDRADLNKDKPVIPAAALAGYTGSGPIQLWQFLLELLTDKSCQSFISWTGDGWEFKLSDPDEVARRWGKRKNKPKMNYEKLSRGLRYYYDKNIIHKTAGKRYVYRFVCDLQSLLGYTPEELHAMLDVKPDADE
Method: protein-binding microarray
Form: double-stranded DNA, one strand shown
Sample: in vitro
Concentration: not given
Notes: k-mer, scored over probes, only values ≥0.25
Direction: higher = stronger binding
| Oligonucleotide | E-score |
| --- | --- |
| CGGCGCGC | 0.263 |
| AAATGGTA | 0.293 |
| ACTGTCAA | 0.256 |
| CCCAACAA | 0.302 |
| TATGTCGA | 0.272 |
| ACAAAACG | 0.41 |
| CATGTGCC | 0.263 |
| CGCGCGGA | 0.296 |

Block 3
Target: CCNE1, cyclin fold, Cln2 fusion (human)
Method: yeast growth competition, sequencing
Sample: yeast
Notes: strong parent motif
Baseline: not given
Direction: higher = stronger binding
Starting sequence: viral docking peptide; KGVKRKLFAEDSS
| Variant | normalised enrichment score |
| --- | --- |
| KGVPRKLFAEDSS [K4P] | 3.83 |
| KGVKRKLFAEDVS [S12V] | 7.74 |
| KGVKRKRFAEDSS [L7R] | 0.688 |

Block 4
Molecule: B1 (RNF183 RING domain)
Method: yeast two-hybrid
Sample: yeast
Notes: mostly zero background
Baseline: not given
Direction: higher = stronger interaction
B1: RNF183 RING domain (UniProt Q96D59); chain EQQGRELEAECPVCWNPFNNTFHTPKMLDCCHSFCVECLAHLSLVTPARRRLLCPLCRQPTVLASGQP
| target | lacZ reporter activity |
| --- | --- |
| UBE2D3 UBC core domain (UniProt P61077) | 0 |
| UBE2W UBC core domain (UniProt Q96B02) | 0 |
| UBE2A UBC core domain (UniProt P49459) | 0 |

Some of these lines once more (block 1):
| Structure (SMILES) | inhibition [%] |
| --- | --- |
| O=C1c2ccc(Nc3ccc(F)cc3F)cc2CCc2ccc(OC[C@H](O)CO)cc21 | 81.4 |
| COCc1nc2cnc3cc(-c4c(C)noc4C)c(OC[C@H]4CCNC4)cc3c2n1[C@H](C)c1ccccc1 | 27.9 |
